Results from different studies.
Values after ≈ are worked out from the molar mass of the structure shown.
PFF0160c E182D: Dihydroorotate dehydrogenase (quinone), mitochondrial (PFF0160c, Plasmodium falciparum, UniProt Q08210, E182D)
Sequence of UniProt Q8N752 (whole entry, looked up): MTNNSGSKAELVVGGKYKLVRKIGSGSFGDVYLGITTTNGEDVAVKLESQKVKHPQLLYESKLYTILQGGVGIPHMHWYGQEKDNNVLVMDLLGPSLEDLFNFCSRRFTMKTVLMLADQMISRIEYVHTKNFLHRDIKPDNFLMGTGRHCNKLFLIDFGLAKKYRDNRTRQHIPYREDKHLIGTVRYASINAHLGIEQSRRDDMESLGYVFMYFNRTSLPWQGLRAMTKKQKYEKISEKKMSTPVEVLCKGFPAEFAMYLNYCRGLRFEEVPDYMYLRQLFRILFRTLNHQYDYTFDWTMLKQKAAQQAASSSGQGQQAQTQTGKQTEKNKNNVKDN
Sequence of UniProt Q9P1W9 (whole entry, looked up): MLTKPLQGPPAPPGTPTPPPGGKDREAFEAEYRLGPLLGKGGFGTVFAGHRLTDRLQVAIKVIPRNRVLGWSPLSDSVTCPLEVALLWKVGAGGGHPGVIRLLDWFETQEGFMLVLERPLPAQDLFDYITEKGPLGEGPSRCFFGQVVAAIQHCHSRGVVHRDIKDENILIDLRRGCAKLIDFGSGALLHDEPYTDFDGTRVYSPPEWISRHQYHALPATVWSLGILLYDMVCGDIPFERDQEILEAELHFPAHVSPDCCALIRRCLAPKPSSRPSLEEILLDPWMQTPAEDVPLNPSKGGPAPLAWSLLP
Sequence of UniProt P28335 (whole entry, looked up): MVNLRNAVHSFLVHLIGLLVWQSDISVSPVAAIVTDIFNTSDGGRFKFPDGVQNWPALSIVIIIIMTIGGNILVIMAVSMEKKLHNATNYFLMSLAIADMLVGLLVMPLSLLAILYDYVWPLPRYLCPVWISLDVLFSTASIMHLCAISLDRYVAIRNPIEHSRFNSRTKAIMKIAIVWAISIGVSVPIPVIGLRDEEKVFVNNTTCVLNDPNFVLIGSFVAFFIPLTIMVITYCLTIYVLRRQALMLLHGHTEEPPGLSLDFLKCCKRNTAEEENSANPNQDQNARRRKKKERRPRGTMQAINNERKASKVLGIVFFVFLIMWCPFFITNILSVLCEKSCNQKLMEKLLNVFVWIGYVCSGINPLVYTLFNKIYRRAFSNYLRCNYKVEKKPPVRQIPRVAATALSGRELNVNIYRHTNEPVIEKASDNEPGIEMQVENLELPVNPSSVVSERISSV
Sequence of UniProt Q8WU08 (whole entry, looked up): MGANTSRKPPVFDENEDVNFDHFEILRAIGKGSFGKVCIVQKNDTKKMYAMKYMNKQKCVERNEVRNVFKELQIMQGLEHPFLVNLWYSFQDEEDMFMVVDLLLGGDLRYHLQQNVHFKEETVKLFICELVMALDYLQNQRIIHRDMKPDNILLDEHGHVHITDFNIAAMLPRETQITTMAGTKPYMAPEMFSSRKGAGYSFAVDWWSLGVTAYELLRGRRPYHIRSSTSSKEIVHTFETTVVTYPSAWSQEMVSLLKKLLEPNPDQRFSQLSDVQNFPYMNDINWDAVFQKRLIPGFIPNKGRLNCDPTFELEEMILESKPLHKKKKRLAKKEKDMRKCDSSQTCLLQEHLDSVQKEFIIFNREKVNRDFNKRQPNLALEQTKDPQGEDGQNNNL
Sequence of UniProt Q9BVS4 (whole entry, looked up): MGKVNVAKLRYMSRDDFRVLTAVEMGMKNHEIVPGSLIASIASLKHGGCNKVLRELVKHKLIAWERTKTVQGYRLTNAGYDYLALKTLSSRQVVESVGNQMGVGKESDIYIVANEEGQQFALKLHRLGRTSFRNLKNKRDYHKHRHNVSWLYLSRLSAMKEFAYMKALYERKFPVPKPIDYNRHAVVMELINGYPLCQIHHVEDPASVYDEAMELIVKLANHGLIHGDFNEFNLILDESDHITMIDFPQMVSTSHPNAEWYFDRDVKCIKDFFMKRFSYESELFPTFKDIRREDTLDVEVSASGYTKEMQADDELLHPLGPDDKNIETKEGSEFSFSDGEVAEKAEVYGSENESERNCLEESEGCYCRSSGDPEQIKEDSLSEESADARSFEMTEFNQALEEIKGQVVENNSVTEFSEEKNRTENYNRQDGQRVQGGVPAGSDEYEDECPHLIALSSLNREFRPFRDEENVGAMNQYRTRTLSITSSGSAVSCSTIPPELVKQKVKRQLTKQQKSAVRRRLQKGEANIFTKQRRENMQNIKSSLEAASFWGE

| SMILES | tested on | test | test system | setting | quantity | value |
| --- | --- | --- | --- | --- | --- | --- |
| CCOC(=O)C1=C[C@@H](OC(CC)CC)[C@H](NC(C)=O)[C@@H](N)C1 | Human coronavirus 229E | cytopathic effect | A549 | 100 µM | inhibition | 82% |
| Nc1c(C(=O)NC23CC4CC(CC(C4)C2)C3)sc2nc(-c3ccc4c(c3)OCO4)cc(C(F)(F)F)c12 | Mycobacterium tuberculosis | microbial growth | H37RV |  | IC50 | 570 nM |
| Cc1ccc(S(=O)(=O)Oc2ccc3c(c2)Oc2nc4c(c(N)c2C3c2ccc(Cl)c(Cl)c2)CCCC4)cc1 (stereo not drawn) | SH-SY5Y | cell growth or viability, MTT |  | 6.3 µM | viability | 71.8% |
| Cc1cccc2[nH]cc(CNCC3(N4CCCC4)COC3)c12 | A 172 | cell growth or viability |  | 30 µM, 48 h | viability | 65.5% |
| O=c1cc(CSc2ccc(N=Cc3cccc(Br)c3)cc2)occ1O |  | DPPH scavenging, absorbance |  | 30 min | IC50 | 124000 nM |
| N=C(N)c1ccc(OCc2cc(COc3ccc(C(=N)N)cc3)cc(-c3ccccc3)c2)cc1 | Escherichia coli | microbial growth, broth dilution | BW25113 |  | MIC | 100 µg/mL (≈ 222 µM) |
| N.N.[Cl][Pt][Cl] | MCF7 | cell growth or viability, MTT |  |  | GI50 | 4630 nM |
| COC(=O)c1cc(-c2cccc(NC(=O)Nc3ccccc3OC)c2)on1 | Klebsiella pneumoniae | microbial growth, broth dilution | BAA1705 |  | MIC | > 64 µg/mL |
| COc1cnc(OC)n2nc(NS(=O)(=O)c3c(OCC(F)F)cccc3C(F)(F)F)nc12 | HaCaT | cell growth or viability, CCK-8 |  | 0.78 µM, 72 h | inhibition | 0.4% |
| COc1ncccc1-c1cnn2ccc(N3CCN(C(=O)OC(C)C)CC3)nc12 | RIOK2 (Homo sapiens, UniProt Q9BVS4) | binding, competition with immobilised ligand |  | 1 µM | remaining binding | 92% |
| O=c1cc(CSc2ccc(N=Cc3ccc(Cl)cc3)cc2)occ1O |  | DPPH scavenging, absorbance |  | 30 min | IC50 | 40800 nM |
| C#Cc1ccc(O)c(C=NNC(=O)c2ccc(Br)c(Br)c2)c1 | Candida albicans | microbial growth |  | pH 7.4 | MIC80 | 0.25 µg/mL (≈ 0.592 µM) |
| CCCCCCNC(=S)Nc1cccc(-c2cc(C(=O)OC)no2)c1 | Klebsiella pneumoniae | microbial growth, broth dilution | BAA1705 |  | MIC | > 64 µg/mL |
| COC1CN(C(=O)c2sc3nc(-c4ccccc4)ccc3c2N)C1 | Mycobacterium tuberculosis | microbial growth | H37RV |  | IC50 | 31000 nM |
| N.N.[Cl][Pt][Cl] | SUP-B15 | cell growth or viability, ATP luminescence |  | 72 h | IC50 | 1670 nM |
| COC(=O)c1cc(-c2cccc(NC(=S)Nc3ccc([N+](=O)[O-])cc3)c2)on1 | Pseudomonas aeruginosa | microbial growth, broth dilution | ATCC27853 |  | MIC | > 64 µg/mL |
| Cc1noc(-c2cccs2)c1C(=O)NC(C)c1cccc2ccccc12 (stereo not drawn) | PFF0160c E182D | enzyme activity, inhibitor, absorbance |  |  | IC50 | 1940 nM |
| Nc1ncnc2c([C@@H]3N[C@H](CO)[C@@H](O)[C@H]3O)c[nH]c12 | unidentified influenza virus | viral replication, inhibitor | MDCK | 0.3 µM | inhibition | 0% |
| Nc1ncc(-c2nc(N3CCOCC3)nc(N3CCOCC3)n2)c(C(F)F)n1 | STK32A (Homo sapiens, UniProt Q8WU08) | binding, competition with immobilised ligand |  | 10 µM | remaining binding | 94% |
| CC(Oc1cccc(Cl)c1)C(=O)N1CCc2ccccc21 (stereo not drawn) | PFF0160c E182D | enzyme activity, inhibitor, absorbance |  |  | IC50 | 111 nM |
| O=c1cc(OCCCOc2ccnc(SCc3ccc(F)cc3)n2)c2cc(F)ccc2o1 | Human coronavirus 229E | cytopathic effect | A549 | 1.56 µM | inhibition | 8.05% |
| [2H]c1c([2H])c([C@]2([2H])CCCN2C(=O)C(C)(C)Oc2ccc3cn[nH]c3c2)c([2H])c([2H])c1C([2H])([2H])[2H] | STK39 (Homo sapiens, UniProt Q9UEW8) | binding, competition with immobilised ligand |  | 1 µM | remaining binding | 100% |
| COc1ccc(-c2cc(C(F)(F)F)c3c(N)c(C(=O)NC(C)c4ccccc4)sc3n2)cn1 (stereo not drawn) | Mycobacterium tuberculosis | microbial growth | H37RV |  | IC50 | 940 nM |

| SMILES | tested on | test | test system | setting | quantity | value |
| --- | --- | --- | --- | --- | --- | --- |
| COC(=O)c1cc(-c2cccc(NC(=O)NCc3ccccc3)c2)on1 | Mycobacteroides chelonae | microbial growth, broth dilution | ATCC35752 | 48 h | MIC | > 64 µg/mL |
| COc1ccc(-c2cc(C(F)(F)F)c3c(N)c(C(=O)NCC45CC6CC(CC(C6)C4)C5)sc3n2)cc1 | Mycobacterium tuberculosis | microbial growth | H37RV |  | IC50 | 990 nM |
| C#Cc1ccc(O)c(C=NNC(=O)c2ccc(C3(C(F)(F)F)N=N3)cc2)c1 | Candida albicans | microbial growth |  | pH 7.4 | MIC80 | ≤ 0.25 µg/mL |
| COc1ccc(-c2cc(C(F)(F)F)c3c(N)c(C(=O)Nc4cccc(C)c4F)sc3n2)cc1 | Mycobacterium tuberculosis | microbial growth | H37RV |  | IC50 | > 100000 nM |
| C#Cc1n[nH]c2c(-c3cn([C@@H](C)c4ccccn4)c(=O)[nH]c3=O)cc(F)cc12 | PIM2 (Homo sapiens, UniProt Q9P1W9) | enzyme activity, inhibitor |  | 0.1 µM | inhibition | 4.5% |
| O=c1cc(CSc2ccc(N=Cc3cccc(O)c3)cc2)occ1O |  | DPPH scavenging, absorbance |  | 30 min | IC50 | 6990 nM |
| COC(=O)c1cc(-c2cccc(NC(=O)Nc3cc(OC)ccc3OC)c2)on1 | Mycobacteroides chelonae | microbial growth, broth dilution | ATCC35752 | 48 h | MIC | > 64 µg/mL |
| CC(C)C[C@H](NC(=O)[C@H](Cc1ccccc1)NC(=O)[C@H](Cc1ccccc1)NC(=O)Cc1ccc(-c2ccccc2)cc1)C(=O)N[C@@H](CCCCN)C(=O)N[C@@H](CCCNC(=N)N)C(=O)N[C@H](C(=O)N[C@@H](Cc1c[nH]c2ccccc12)C(=O)N[C@@H](CCCCN)C(=O)N[C@@H](CCCNC(=N)N)C(=O)O)C(C)C |  | metabolic stability, mass spectrometry | human, liver microsomes | 15 min | compound remaining | 47.1% |
| O=C1NC(=O)C(C2C3=C(CCCC3=O)Oc3ccc([N+](=O)[O-])cc32)C(=O)N1 (stereo not drawn) | 3T3-L1 | cell growth or viability, MTT |  | 72 h | IC20 | 153 µg/mL (≈ 413 µM) |
| Cc1nn(C)cc1-c1nc2c(N3CCN(Cc4ccc(Cl)cc4)CC3)c(Cl)cnc2[nH]1 | CSNK1A1L (Homo sapiens, UniProt Q8N752) | binding, competition with immobilised ligand |  | 1 µM | remaining binding | 93% |
| COc1ccccc1C=Nc1ccc(SCc2cc(=O)c(O)co2)cc1 |  | DPPH scavenging, absorbance |  | 30 min | IC50 | 36500 nM |
| COc1cc(CCNC(C)c2ccccc2O)c(OC)cc1C#N (stereo not drawn) | HTR2C (Homo sapiens, UniProt P28335) | calcium signal, agonist |  |  | EC50 | 93 nM |
| Cc1cccc(NC(=O)c2sc3nc(-c4ccc5c(c4)OCO5)cc(C(F)(F)F)c3c2N)c1C | Mycobacterium tuberculosis | microbial growth | H37RV |  | IC50 | 860 nM |
| C#Cc1cccc(O)c1C=NNC(=O)c1ccc(Br)cc1 | Cryptococcus neoformans | microbial growth, broth dilution |  | pH 7.4 | MIC80 | 0.125 µg/mL (≈ 0.364 µM) |
| COC(=O)c1cc(-c2cccc(NC(=O)Nc3cccc(C(F)(F)F)c3)c2)on1 | Klebsiella pneumoniae | microbial growth, broth dilution | BAA1705 |  | MIC | > 64 µg/mL |
| C#Cc1cc(O)c(C=NNC(=O)c2ccc(Br)cc2Br)cc1C#C | Candida albicans | microbial growth |  | pH 7.4 | MIC80 | 16 µg/mL (≈ 35.9 µM) |
| O=c1cc(CSc2ccc(N=Cc3ccccc3)cc2)occ1O |  | DPPH scavenging, absorbance |  | 30 min | IC50 | 4750 nM |
| COc1ccc(-c2cc(C(F)(F)F)c3c(N)c(C(=O)N4CC(OC)C4)sc3n2)cc1 | Mycobacterium tuberculosis | microbial growth | H37RV |  | IC50 | > 100000 nM |
| COC(=O)c1cc(-c2cccc(NC(=O)Nc3ccc(C(F)(F)F)cc3)c2)on1 | Pseudomonas aeruginosa | microbial growth, broth dilution | ATCC27853 |  | MIC | > 64 µg/mL |
| C#Cc1ccc(C(=O)NN=Cc2ccc(C#C)cc2O)cc1 | Candida albicans | microbial growth |  | pH 7.4 | MIC80 | 16 µg/mL (≈ 55.5 µM) |
| COC(=O)c1cc(-c2cccc(NC(=S)Nc3ccc(C#N)cc3)c2)on1 | Pseudomonas aeruginosa | microbial growth, broth dilution | ATCC27853 |  | MIC | > 64 µg/mL |
| COc1ccc(-c2cc(C(F)(F)F)c3c(N)c(C(=O)Nc4cccc(C)c4C)sc3n2)cc1 | Mycobacterium tuberculosis | microbial growth | H37RV |  | IC50 | 970 nM |

Repeated from above:
| SMILES | tested on | test | test system | setting | quantity | value |
| --- | --- | --- | --- | --- | --- | --- |
| COc1ccc(-c2cc(C(F)(F)F)c3c(N)c(C(=O)Nc4cccc(C)c4F)sc3n2)cc1 | Mycobacterium tuberculosis | microbial growth | H37RV |  | IC50 | > 100000 nM |
| CCCCCCNC(=S)Nc1cccc(-c2cc(C(=O)OC)no2)c1 | Klebsiella pneumoniae | microbial growth, broth dilution | BAA1705 |  | MIC | > 64 µg/mL |
| COc1cc(CCNC(C)c2ccccc2O)c(OC)cc1C#N (stereo not drawn) | HTR2C (Homo sapiens, UniProt P28335) | calcium signal, agonist |  |  | EC50 | 93 nM |
| C#Cc1cc(O)c(C=NNC(=O)c2ccc(Br)cc2Br)cc1C#C | Candida albicans | microbial growth |  | pH 7.4 | MIC80 | 16 µg/mL (≈ 35.9 µM) |
| Nc1c(C(=O)NC23CC4CC(CC(C4)C2)C3)sc2nc(-c3ccc4c(c3)OCO4)cc(C(F)(F)F)c12 | Mycobacterium tuberculosis | microbial growth | H37RV |  | IC50 | 570 nM |
